Measured values collected from several papers.
± gives the spread as reported.

Compound = CN(CC#N)C(=O)C[C@H](Nc1nc2ccccc2[nH]1)c1cccc(C(F)(F)F)c1; test system = human; setting = intravenous infusion, 4 mg/kg, 1 mg/mL formulation; AUC(0-t) = 19900 ± 7800 ng·h/mL
Compound = NC1(C(=O)N[C@@H](CCO)c2ccc(Cl)cc2)CCN(c2nc[nH]c3nccc2-3)CC1; test system = human patients, plasma; setting = dose not given, cohort 160/480, cycle 0, geometric mean; AUC(0-t) = 3920 ng·h/mL
Compound = NC[C@@]1(CC(=O)O)[C@@H]2CC[C@H]3C[C@@H]2[C@@H]1C3; test system = human, severe renal impairment, plasma; setting = oral, 20 mg single dose, geometric mean; AUC(0-t) = 6500 ng·h/mL
Compound = C#C[C@]1(CO)O[C@@H](n2cnc3c(N)nc(F)nc32)C[C@@H]1O; test system = human, plasma; setting = oral, 100 mg, single dose, geometric mean; AUC(0-t) = 10.1 µM·h
Compound = C[C@H]1CN(C(=O)CC#N)[C@]12CCN(c1ncnc3[nH]ccc13)C2; test system = healthy human, plasma; setting = oral, 6 mg single, mean; AUC(0-t) = 205 ng·h/mL
Compound = C=CCn1c(=O)c2cnc(Nc3ccc(N4CCN(C)CC4)cc3)nc2n1-c1cccc(C(C)(C)O)n1; test system = human; setting = oral, 125 mg twice daily, cycle 1 day 17, added: durvalumab 1500 mg IV; scale = geometric mean; AUC(0-t) = 4.38 µM·h
Compound = CO[C@H]1C[C@@H]2CC[C@@H](C)[C@@](O)(O2)C(=O)C(=O)N2CCCC[C@H]2C(=O)O[C@H]([C@H](C)C[C@@H]2CC[C@@H](OC(=O)NCCOCCOCCOCCOCCOCCOCCOCCOCCC(=O)N3CCc4cc(Cn5nc(-c6ccc7oc(N)nc7c6)c6c(N)ncnc65)ccc4C3)[C@H](OC)C2)C[C@@H](O)[C@H](C)/C=C(\C)[C@@H](O)[C@@H](OC)C(=O)[C@H](C)C[C@H](C)/C=C/C=C/C=C/1C; test system = human, plasma; setting = intravenous, 8 mg, cycle 1 day 1, arithmetic mean; AUC(0-t) = 392 ng·h/mL
Compound = Cn1cc(-c2cn3nccc3c(-c3cnn([C@]4(CC#N)C[C@@H](C#N)C4)c3)n2)cn1; test system = healthy humans fasted, plasma; setting = 3 mg single dose, geometric mean; AUC(0-t) = 40 ng·h/mL
Compound = Cc1cc(C)c(CNC(=O)c2cc(Cl)c3c(c2C)O[C@@](C)([C@H]2CC[C@H](N(C)C)CC2)O3)c(=O)[nH]1; assay = geometric LS mean; test system = healthy male humans, plasma; setting = oral, 25 mg, alone, itraconazole DDI study reference; AUC(0-t) = 724 ng·h/mL
Compound = O=C(O)CCC(=O)O.[2H]C([2H])([2H])Oc1cc(C)c2[nH]ccc2c1CN1CC[C@@H](C2CC2)C[C@H]1c1ccc(C(=O)O)cc1; test system = healthy humans, fasted, plasma; setting = oral, 200 mg, single dose; AUC(0-t) = 123000 ng·h/mL
Compound = C=CC(=O)N(C)CCOc1c(N)ncnc1-c1cc(F)cc(NC(=O)c2ccc(C3CC3)cc2F)c1C; test system = human, whole blood; setting = oral, 200 mg, single ascending dose; AUC(0-t) = 624 ng·h/mL
Compound = Cl.[2H]C([2H])([2H])CC(=O)c1cnc(NC(=O)C2CC2)cc1Nc1cccc(-c2ncn(C([2H])([2H])[2H])n2)c1OC; assay = geometric mean; test system = human; setting = oral, 5 mg single dose, fasted, liquid; AUC(0-t) = 326 ng·h/mL
